Assay results pooled from the literature.
± marks the error that the study gave. Converted amounts (≈) assume the structure as drawn.
BCHE: Cholinesterase (BCHE, Homo sapiens, UniProt P06276)
Chain of UniProt P06276 (whole entry, looked up): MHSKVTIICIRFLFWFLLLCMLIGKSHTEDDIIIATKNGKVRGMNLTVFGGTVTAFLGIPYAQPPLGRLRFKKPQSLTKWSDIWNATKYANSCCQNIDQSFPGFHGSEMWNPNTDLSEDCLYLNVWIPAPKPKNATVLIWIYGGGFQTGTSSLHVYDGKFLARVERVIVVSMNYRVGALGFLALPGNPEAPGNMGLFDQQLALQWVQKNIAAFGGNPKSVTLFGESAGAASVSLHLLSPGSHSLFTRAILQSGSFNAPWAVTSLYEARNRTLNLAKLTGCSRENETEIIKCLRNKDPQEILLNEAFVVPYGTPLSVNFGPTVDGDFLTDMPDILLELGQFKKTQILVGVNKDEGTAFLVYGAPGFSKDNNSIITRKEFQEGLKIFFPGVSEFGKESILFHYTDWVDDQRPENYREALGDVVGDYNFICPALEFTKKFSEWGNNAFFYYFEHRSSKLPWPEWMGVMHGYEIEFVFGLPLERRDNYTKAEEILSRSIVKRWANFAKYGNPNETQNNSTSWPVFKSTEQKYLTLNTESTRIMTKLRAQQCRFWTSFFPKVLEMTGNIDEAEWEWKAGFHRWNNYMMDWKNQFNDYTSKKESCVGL

Compound = CCCCN1[C@@H]2CC[C@H]1C[C@@H](OC(c1ccc(F)cc1)c1ccc(F)cc1)C2; tested on = Plasmodium falciparum; system = HB3; measurement = IC50; value = 1000 nM
Compound = CCc1nc2nc(C)cc(Nc3ccc(F)c(Cl)c3)n2n1; tested on = Plasmodium falciparum; assay = parasite growth, SYBR Green; setting = 72 h; scale = relative to: 3D7-E182D over 3D7; measurement = EC50 ratio; value = 16
Compound = Nc1c2c(nc3ccccc13)CCCC2O (stereo not drawn); tested on = BCHE; assay = inhibitor; setting = with Triton; measurement = IC50; value = 1220 ± 140 nM
Compound = CCOC(=O)c1cn(CC)c2cc(O[C@H]3CCN(C(=O)OC(C)(C)C)C3)ccc2c1=O; tested on = Plasmodium falciparum; assay = parasite growth, SYBR Green; setting = 72 h; scale = relative to: 3D7-E182D over 3D7; measurement = EC50 ratio; value = 1.9
Compound = CC(C)[C@@H]1NC(=O)[C@@H](CCCN)NC(=O)[C@H]([C@@H](C)O)NC(=O)[C@H](Cc2ccccc2)NC(=O)[C@@H](Cc2ccccc2)NC(=O)[C@H](Cc2ccccc2)NC(=O)[C@@H](CCCN)NC1=O; tested on = Naegleria fowleri; setting = trophozoites; measurement = IC50; value = > 16 µg/mL
Compound = CCOC(=O)Nc1ccc(NCc2ccc(F)cc2)nc1N; tested on = Plasmodium falciparum; system = Dd2; measurement = IC50; value = 10000 nM
Compound = C[C@H]1NC(=O)[C@H](Cc2c[nH]c3ccccc23)NC(=O)[C@@H](Cc2ccccc2)NC(=O)[C@@H](CCCN)NC(=O)[C@H]([C@@H](C)O)NC(=O)[C@@H](CCCN)NC(=O)[C@H](Cc2c[nH]c3ccccc23)NC(=O)[C@@H](C)NC1=O; tested on = Acanthamoeba castellanii; setting = trophozoites; measurement = IC50; value = 11.6 µg/mL
Compound = Cc1ccccc1C(=O)NN=Cc1ccc(O)c(Br)c1; tested on = Cryptococcus neoformans; setting = concentration not given, together with: caspofungin; measurement = MIC in combination; value = 0.5 µg/mL
Compound = CCCCCCCCCCCCCCCC(=O)NCCO; tested on = Plasmodium falciparum; system = HB3; measurement = IC50; value = 10000 nM
Compound = CC(C)[C@@H]1NC(=O)[C@H](Cc2ccccc2)NC(=O)[C@@H]2NC(=O)[C@H](Cc3ccccc3)NC(=O)[C@@H]3CCCN3C(=O)CNC(=O)[C@H](Cc3ccccc3)NC(=O)[C@@H]3CNCCCC[C@@H](C(=O)O)NC(=O)[C@@H]4NC(=O)[C@H](CC(N)=O)NC(=O)CNC(=O)[C@H]([C@@H](O)C(=O)O)NC(=O)[C@H](CSC[C@@H](NC(=O)[C@H](CCC(N)=O)NC(=O)[C@H](CCCCNC(=O)c5ccc(NN)nc5)NC(=O)[C@@H](N)CS[C@H]4C)C(=O)N[C@@H](CS[C@H]2C)C(=O)N3)NC1=O [technetium-99m labelled]; system = rat 45 min ischemia, 2 h reperfusion, myocardial hot-spot; setting = 2 h; scale = relative to: 2 min post-injection; measurement = fractional retention; value = 356 ± 52.4%
Compound = CC(C)[C@H]1NC(=O)[C@H](Cc2ccccc2)NC(=O)CNC(=O)[C@@H](Cc2ccccc2)NC(=O)[C@H](CCCCN)NC(=O)[C@@H](CCCNC(=N)N)NC1=O; tested on = Acanthamoeba castellanii; setting = trophozoites; measurement = IC50; value = > 16 µg/mL
Compound = C=C(CN(C(=O)c1c(C(F)F)nn(C)c1F)C1CC1)c1ccc(Cl)cc1Cl; tested on = Exserohilum turcicum; setting = 1.56 mg/L; measurement = colony diameter; value = 5 mm
Compound = O=C(NC(=O)c1c(F)cccc1F)Nc1ccc(Cl)cc1; tested on = Ostrinia furnacalis; system = corn seedlings; setting = foliar spray, 100 mg/L, 7 days; measurement = control efficacy; value = 60%
Compound = CC(C)[C@@H]1NC(=O)[C@@H](CCCCN)NC(=O)[C@H](CCCCN)NC(=O)[C@@H](CCCN)NC(=O)[C@H](C)NC(=O)[C@H](Cc2c[nH]c3ccccc23)NC(=O)[C@@H](Cc2ccccc2)NC1=O; tested on = Acanthamoeba castellanii; setting = trophozoites; measurement = IC50; value = 13.6 µg/mL
Compound = O=C(Nc1cccc(CN2CCN(C(=O)c3cccc(Cl)c3)CC2)c1)c1cccs1; tested on = Plasmodium falciparum; assay = parasite growth, SYBR Green; system = 3D7 wild type; setting = 72 h; measurement = EC50; value = 180 ± 46 nM
Compound = N=C(N)NCCC[C@@H]1NC(=O)[C@H](CCCCNC(=O)c2ccc(CNC34CNCCNCC(N)(CNCCNC3)CNCCNC4)cc2)NC(=O)[C@@H](Cc2ccc(O)cc2)NC(=O)[C@H](CC(=O)O)NC(=O)CNC1=O [copper-64 labelled]; assay = microPET; system = male athymic nude mouse, PC-3 tumour, liver; setting = intravenous, 7.4 MBq, 24 h; measurement = tissue uptake; value = 0.96 ± 0.14 %ID/g
Compound = Cc1ccc2[nH]c3c(c2c1)CCCC3NCCc1ccc(O)cc1 (stereo not drawn); tested on = Streptococcus pneumoniae; setting = concentration not given, 10% fetal bovine serum; scale = relative to: without serum; measurement = MIC fold change; value = 4
Compound = CC(C)[C@H]1NC(=O)[C@H](CCCNC(=N)N)NC(=O)CNC(=O)[C@@H](Cc2c[nH]c3ccccc23)NC(=O)[C@H](CCCCN)NC(=O)[C@@H](CCCN)NC1=O; tested on = Acanthamoeba castellanii; setting = trophozoites; measurement = IC90; value = > 16 µg/mL
Compound = CNCCCN1c2ccccc2CCc2ccccc21; tested on = Plasmodium falciparum; system = Dd2; measurement = IC50; value = 2000 nM
Compound = CC(C)[C@@H]1NC(=O)[C@@H](C(C)C)NC(=O)[C@H](C)NC(=O)[C@H](CO)NC(=O)[C@H](Cc2c[nH]c3ccccc23)NC(=O)[C@@H](Cc2ccc(O)cc2)NC(=O)[C@H](CCCN)NC(=O)[C@H](Cc2c[nH]c3ccccc23)NC1=O; tested on = Acanthamoeba castellanii; setting = trophozoites; measurement = IC50; value = > 16 µg/mL
Compound = CC[C@H](C)[C@H](NC(=O)[C@H](C)NC(=O)[C@H](CCCCN)NC(=O)[C@H](CC(C)C)NC(=O)[C@H](C)NC(=O)[C@@H](NC(=O)[C@H](Cc1c[nH]cn1)NC(=O)[C@H](CC(C)C)NC(=O)[C@@H](NC(=O)[C@@H](NC(=O)[C@H](CCCCN)NC(=O)[C@H](C)NC(=O)[C@H](C)NC(=O)[C@H](CO)NC(=O)[C@H](CCCCN)NC(=O)[C@H](Cc1ccccc1)NC(=O)[C@@H](NC(=O)[C@H](CCCCN)NC(=O)[C@H](CC(C)C)NC(=O)[C@H](Cc1ccccc1)NC(=O)[C@H](CO)NC(=O)[C@H](CCCCN)NC(=O)[C@H](Cc1c[nH]c2ccccc12)NC(=O)[C@H](CCCCN)NC(C)=O)[C@@H](C)O)[C@@H](C)O)C(C)C)[C@@H](C)O)C(=O)N[C@@H](CO)C(=O)N[C@@H](CO)C(N)=O; tested on = Streptococcus pyogenes; system = ATCC 13813; setting = 1 strain; measurement = MIC50; value = 16 µg/mL (≈ 5.45 µM)
Compound = CC(=O)c1c(Nc2c(C)cc(C)cc2C)oc(C)cc1=O; tested on = Plasmodium falciparum; assay = parasite growth, SYBR Green; system = 3D7 DHODH E182D; setting = 72 h; measurement = EC50; value = 1250 ± 270 nM
Compound = CCCN(CCC)CCc1c[nH]c2ccccc12; tested on = BCHE; assay = inhibitor; measurement = IC50; value = 8040 ± 610 nM
Compound = CC(COc1ccccc1)N(CCCl)Cc1ccccc1 (stereo not drawn); tested on = Plasmodium falciparum; system = W2; measurement = IC50; value = 2510 nM
Compound = COc1cc(N[C@H](C(=O)c2c[nH]c3ccc(OC(F)(F)F)cc23)c2ccc(Cl)cc2OC)cc(S(C)(=O)=O)c1; tested on = dengue virus 2; assay = viral infection, luciferase reporter virus; setting = 1 nM, 48 h; measurement = inhibition; value = 99.9%
Compound = CC(C)[C@@H]1NC(=O)[C@@H](Cc2ccccc2)NC(=O)[C@H](Cc2ccccc2)NC(=O)[C@@H]([C@H](C)O)NC(=O)[C@H]([C@@H](C)O)NC(=O)[C@@H](CCCNC(=N)N)NC1=O; tested on = Naegleria fowleri; setting = trophozoites; measurement = IC50; value = > 16 µg/mL
Compound = Cc1ccccc1NC(=O)Nc1ccc(CC(=O)N[C@@H](CCCCNC(=O)/C=C/c2cccnc2)C(=O)N[C@@H](CCCC(=O)O)C(=O)NC2(C(=O)NCCOCCOCCOCCOCC(=O)N[C@@H](CCCCNC(=S)Nc3ccc(CCCN(CCN4CCN(CC(=O)O)CCN(CC(=O)O)CC4)CC(=O)O)cc3)C(N)=O)CCCCC2)cc1 [gallium-68 labelled]; assay = shake flask; system = octanol/PBS; setting = pH 7.4; measurement = log D; value = -2.31 ± 0.04
Compound = Cc1ccc(NC(=O)c2cc(S(=O)(=O)NC(C)(C)C)ccc2C)nc1; tested on = Plasmodium falciparum; assay = parasite growth, SYBR Green; setting = 72 h; scale = relative to: 3D7-E182D over 3D7; measurement = EC50 ratio; value = 12
Compound = O=C(CCCN1CC=C(n2c(=O)[nH]c3ccccc32)CC1)c1ccc(F)cc1; tested on = Plasmodium falciparum; system = GB4; measurement = IC50; value = 6310 nM
Compound = COc1ccc(NC(=O)CCNc2cc(C)nc(NCCc3ccc(F)cc3)n2)cc1.O=C(O)C(F)(F)F; tested on = Plasmodium falciparum; assay = parasite growth, SYBR Green; setting = 72 h; scale = relative to: 3D7-E182D over 3D7; measurement = EC50 ratio; value = 1.4
Compound = CS(=O)(=O)CCCn1c(Cn2c(=O)n(CC(F)(F)F)c3ccncc32)cc2cc(Cl)ccc21; tested on = respiratory syncytial virus; assay = RT-qPCR; system = hospitalized infants 1-24 months, nasal swab; setting = oral, 2, 1.5 or 1 mg/kg daily, day 7, low dose by age cohort; scale = relative to: baseline; measurement = LS mean viral load change; value = -4.41 log10 copies/mL
Compound = COc1ccc(-n2ccnc2SCC(=O)Nc2cc(C)ccc2C)c(OC)c1; tested on = Plasmodium falciparum; assay = parasite growth, SYBR Green; system = 3D7 wild type; setting = 72 h; measurement = EC50; value = 153 ± 77 nM
Compound = CP(=O)(O)CCCN; tested on = Plasmodium falciparum; system = W2; measurement = IC50; value = 2510 nM
Compound = CC(C)[C@@H]1NC(=O)[C@@H](CC(N)=O)NC(=O)[C@H](Cc2ccccc2)NC(=O)[C@@H](CCCN)NC(=O)[C@H](CCCN)NC(=O)[C@H]([C@@H](C)O)NC(=O)[C@@H](C(C)C)NC(=O)[C@H](C(C)C)NC(=O)[C@@H]([C@H](C)O)NC(=O)[C@@H](C(C)C)NC1=O; tested on = Acanthamoeba castellanii; setting = trophozoites; measurement = IC90; value = > 16 µg/mL
Compound = OC(CCN1CCCCC1)(c1ccccc1)C1CCCCC1 (stereo not drawn); tested on = Plasmodium falciparum; system = W2; measurement = IC50; value = 2510 nM
Compound = CNC(=O)c1cc(Cl)cc(C)c1NC(=O)c1cc(Br)nn1-c1ncccc1Cl; tested on = Spodoptera litura; system = Brassica oleracea field; setting = 25 ppm, 168 h, 5% water-dispersible granule; measurement = corrected larval mortality; value = 83.3%
